Assay results gathered from unrelated publications.
Lines come from different studies, so protocols differ. Values joined by “and” are separate records of one study, mostly repeats; a detail may differ. ± gives the spread as reported.

SMILES	test	test system	setting	quantity	value
C[C@@H]1OC(=O)NN=C1c1ccc(-c2ccc(F)cc2)c(C(F)(F)F)c1	phase I trial, refers to: Fatigue worst grade 1	human patients	10 mg loading then 0.5 mg daily	patients with adverse event	100%
CC1(C)[C@H](C(=O)O[C@H](C#N)c2cccc(Oc3ccccc3)c2)[C@@H]1C=C(Br)Br	refers to: CYP1A2	human, age 6 months, recombinant human CYP1A2	0.1 µM	enzyme contribution to clearance	0.08%
C[C@]1(O)C[C@@](N)(c2ccc(-c3nc4n(c3-c3ccccc3)COc3ccncc3-4)cc2)C1		human, advanced or metastatic solid tumours	20 mg once daily, phase I dose escalation	patients with Fatigue TEAE	33.3%
Cc1cccc(Cn2nc(C3CC3)c3c(NC(=O)c4cnc5cc(OCCN6CCN(C)CC6)ccn45)cccc32)n1	CTCAE v4.03, refers to: blood CPK increased	patients with advanced solid tumours	oral, 400 mg, dose escalation, together with: pembrolizumab 2 mg/kg IV every 3 weeks	all-cause adverse events	42.9%
COc1cc2c(Oc3ccc4[nH]c(C)cc4c3F)ccnc2cc1OCC1(N)CC1		paediatric recurrent refractory sarcoma	8 mg	grade 3 Epistaxis	0%
COc1cccc2c1CCCC2CCCN1CCN(C2CCCCC2)CC1 (centres unmarked)		CD-1 mouse, male, lung	intraperitoneal, 3 mg/kg	half-life	2.17 h
CC(C)[C@H](N)C(=O)NCCCS(=O)(=O)O		human	oral, 265 mg twice daily, 3 h post-dose, steady state, week 65	plasma concentration	1500 ng/mL
O[C@H]1CCCN[C@@H]1CCCn1cnc2c(Cl)c(Cl)ccc21		healthy human, plasma	oral, 150 mg, steady state, together with: nintedanib 150 mg	AUCtau	1330 ng·h/mL
COc1ccc(C[C@@H]2NC(=O)[C@H]([C@@H](C)O)NC(=O)[C@@H]3[C@@H]4CCN3C(=O)[C@@H]3Cc5cn(c6ccc(F)cc56)CCCCCCN(Cc5ccc(cc5)CCNC(=O)[C@]5(C)CCCN5C2=O)C(=O)CCC(=O)N[C@@H](C)C(=O)N[C@H](CNC(=O)CCCCC[N+](C)(C)C)C(=O)N[C@@H](Cc2cccc(c2)CNC(=O)CO4)C(=O)N3)cc1	refers to: Vomiting	humans	concentration not given, Study-001	participants with adverse event	2%
CO[C@H]1C[C@@H]2CC[C@@H](C)[C@@](O)(O2)C(=O)C(=O)N2CCCC[C@H]2C(=O)O[C@H]([C@H](C)C[C@@H]2CC[C@@H](OC(=O)NCCOCCOCCOCCOCCOCCOCCOCCOCCC(=O)N3CCc4cc(Cn5nc(-c6ccc7oc(N)nc7c6)c6c(N)ncnc65)ccc4C3)[C@H](OC)C2)C[C@@H](O)[C@H](C)/C=C(\C)[C@@H](O)[C@@H](OC)C(=O)[C@H](C)C[C@H](C)/C=C/C=C/C=C/1C		patients with advanced solid tumours	intravenous, 10 mg weekly, grade 3 or higher	abdominal pain incidence	0%
[O-][S+]1CCc2nc(N3CCC(c4ncc(Cl)cn4)CC3)nc(NC3(CO)CCC3)c21 (centres unmarked)	refers to: Diarrhoea	healthy male humans	48 mg single dose	adverse event incidence	0%
CC[C@H](C)[C@H](NC(=O)[C@H](Cc1ccccc1)NC(=O)[C@H](CCC(=O)O)NC(=O)[C@H](CCCNC(=N)N)NC(=O)[C@H](C)NC(=O)[C@H](C)NC(=O)[C@H](CCC(N)=O)NC(=O)[C@H](CCC(=O)O)NC(=O)[C@H](CCC(=O)O)NC(=O)[C@H](CC(C)C)NC(=O)[C@H](Cc1ccc(O)cc1)NC(=O)[C@H](CO)NC(=O)[C@H](CO)NC(=O)[C@@H](NC(=O)[C@H](CC(=O)O)NC(=O)[C@H](CO)NC(=O)[C@@H](NC(=O)[C@H](Cc1ccccc1)NC(=O)[C@@H](NC(=O)CNC(=O)[C@H](CCC(=O)O)NC(=O)[C@H](C)NC(=O)CCc1cnc[nH]1)[C@@H](C)O)[C@@H](C)O)C(C)C)C(=O)N[C@@H](C)C(=O)N[C@@H](Cc1c[nH]c2ccccc12)C(=O)N[C@@H](CC(C)C)C(=O)N[C@H](C(=O)N[C@@H](CCCNC(=N)N)C(=O)NCC(=O)N[C@@H](CCCNC(=N)N)C(=O)N[C@@H](CCCCNC(=O)COCCOCCNC(=O)COCCOCCNC(=O)CC[C@H](NC(=O)CCCCCCCCCCCCCCCCC(=O)O)C(=O)O)C(=O)NCC(=O)NCC(=O)N[C@@H](CO)C(=O)N[C@@H](CCCCNC(=O)[C@H](CCCCNc1c(NCCCCCN(O)C(=O)CCC(=O)NCCCCCN(O)C(=O)CCC(=O)NCCCCCN(O)C(C)=O)c(=O)c1=O)Nc1c(NCCCCCN(O)C(=O)CCC(=O)NCCCCCN(O)C(=O)CCC(=O)NCCCCCN(O)C(C)=O)c(=O)c1=O)C(=O)O)C(C)C [zirconium-89 labelled]	ex vivo gamma counting	Sprague-Dawley rat, male, spleen	intravenous, 1 nmol, 24 h	tissue uptake	0.584 %ID/g and 0.619 %ID/g and 0.656 %ID/g and 0.56 %ID/g and 0.583 %ID/g
COC[C@@]12CC[C@H](OC)[C@]34C(C([C@H](OC)[C@H]13)[C@]1(OC(C)=O)[C@H]3[C@@H](OC(=O)c5ccccc5)[C@](O)(C[C@H]34)[C@@H](OC)[C@@H]1O)N(C)C2		Sprague-Dawley rat, plasma	oral, dose not given, with H in PCW extract	MRT(0-t)	5.34 ± 0.784 h
CC[C@H](C)[C@H](N)C(=O)N[C@@H](CCCNC(=N)N)C(=O)N[C@H](C(=O)N[C@@H](Cc1c[nH]c2ccccc12)C(=O)N[C@@H](CCCCN)C(=O)N[C@@H](CCCCN)C(=O)N[C@@H](Cc1ccccc1)C(=O)N[C@H](C(=O)N[C@@H](CCCNC(=N)N)C(=O)N[C@@H](CCCCN)C(=O)N[C@@H](CCSC)C(=O)N[C@@H](CCCCN)C(=O)N[C@@H](C)C(=O)N[C@H](C(=O)N[C@@H](Cc1ccc(O)cc1)C(=O)N[C@@H](Cc1c[nH]cn1)C(N)=O)[C@@H](C)CC)C(C)C)C(C)C	reversed-phase UPLC	C18 column, TFA		elution acetonitrile content	45.6%

A few entries again:
SMILES	test	test system	setting	quantity	value
COc1cccc2c1CCCC2CCCN1CCN(C2CCCCC2)CC1 (centres unmarked)		CD-1 mouse, male, lung	intraperitoneal, 3 mg/kg	half-life	2.17 h
